Results of several laboratories.
Compare with care: the assays were run in different laboratories. Numbers after ± are the reported error.
ALB: Albumin (ALB, Bos taurus, UniProt P02769)

SMILES | target | test | test system | setting | how to read | quantity | result
N=C(N)NCCC[C@H](NC(=O)[C@H](CC(=O)O)NC(=O)[C@@H]1CSCC(=O)NCC(=O)N[C@@H](Cc2c[nH]cn2)C(=O)N[C@H](Cc2ccccc2)C(=O)N[C@@H](CCCNC(=N)N)C(=O)N[C@H](Cc2c[nH]c3ccccc23)C(=O)N1)C(=O)N[C@@H](Cc1ccccc1)C(=O)NCC(N)=O | MC4R (Homo sapiens, UniProt P32245) | cAMP accumulation | HEK293 expressing MC4R | concentration not given |  | functional activity | inactive
CNc1ccccc1C(=O)O[C@H]1C[C@H](n2cnc3c(N)ncnc32)O[C@@H]1COP(=O)(O)OP(=O)(O)O | Unconventional myosin-Va (Gallus gallus, UniProt Q02440, D297C/G292C/I296C/S293C/V295G) | stopped-flow FRET |  | 15 °C, added: MgCl2 10 mM |  | pocket forward rate constant | 0.4 ± 0.08 s⁻¹
O=C(O[C@H]1[C@@H]2C=CO[C@@H](O[C@@H]3O[C@H](CO)[C@@H](O)[C@H](O)[C@H]3O)[C@@H]2[C@@]2(CO)O[C@@H]12)c1ccc(O)cc1 | SLC22A8 (Homo sapiens, UniProt Q8TCC7) | uptake, substrate | HEK293 overexpressing SLC22A8 |  |  | Hill coefficient | 1
Cc1cccc(Cn2ncc3c4cc(F)c(CN(C)C)cc4n(C)c3c2=O)n1 | Pyruvate kinase PKM (PKM, Homo sapiens, UniProt P14618) | ITC |  | pH 7.5, 25 °C |  | ΔS | 1.53 ± 7.03 J/(mol·K)
CC(=O)[O-].O.O.[O-]c1ccc(Br)cc1C=NCCN1CCOCC1.[Zn+2] | ALB | binding, UV absorption titration, measured: BSA band at 278 nm |  | pH 7.2, 25 °C | relative to: free BSA | absorption band blue shift | 3 nm
O=C1C=CC(=O)N1c1ccccc1 | P2X purinoceptor 3 (P2rx3, Rattus norvegicus, UniProt P49654, V238C) | ion current, covalent modifier, patch clamp |  | 0.5 mM, 2 min, added: ATP |  | ATP-evoked current | decreased
COC(=O)c1cnc(-c2cnccn2)cc1C(=O)OC.COC(=O)c1cnc(-c2cnccn2)cc1C(=O)OC.[Cl-].[Cl-].[Cl-].[Cl-].[Cu+2].[Cu+2] | ALB | fluorescence emission |  | emission 365.0 nm |  | fluorescence quenching | 84.4%
CO[C@@H]1O[C@H](CO)[C@@H](O[C@H]2O[C@H](CO)[C@@H](OP(=O)(O)O)[C@H](OP(=O)(O)O)[C@H]2O)[C@H]1OP(=O)(O)O | Inositol 1,4,5-trisphosphate-gated calcium channel ITPR1, N-terminal region (Itpr1, Rattus norvegicus, UniProt P29994, del318-332/R504Q) | [3H]IP3 competition binding | N-terminal fragment | concentration not given, Tris-EDTA medium | relative to: R504Q over wild type | affinity reduction | 21 fold
O=C([O-])CN1CCN(CC(=O)[O-])CCN(C(CCC(=O)NCCCCCN(CCCC[C@H](NC(=O)N[C@@H](CCC(=O)O)C(=O)O)C(=O)O)C(=O)c2ccc(I)cc2)C(=O)O)CCN(CC(=O)[O-])CC1.[68Ga+3] (stereo partly shown) | FOLH1 (Homo sapiens, UniProt Q04609) | PET/CT | human, liver metastasis |  |  | SUVmax | ~6.9
CC(C)CC(NC(=O)C(NC(=O)NC(C(=O)O)C(C)C)C1CCNC(=N)N1)C(=O)NCCCNC(C(=O)O)C(OC1OC(CN)C(O)C1O)C1OC(n2ccc(=O)[nH]c2=O)C(O)C1O (stereo not shown) | mraY (Aquifex aeolicus, UniProt O66465, N255A) | ITC |  | concentration not given, N255A mutant |  | binding stoichiometry | 0.68 ± 0.06 sites

A few entries again:
SMILES | target | test | test system | setting | how to read | quantity | result
O=C1C=CC(=O)N1c1ccccc1 | P2X purinoceptor 3 (P2rx3, Rattus norvegicus, UniProt P49654, V238C) | ion current, covalent modifier, patch clamp |  | 0.5 mM, 2 min, added: ATP |  | ATP-evoked current | decreased
